{"data": "Results gathered from unrelated publications", "note": "Each numbered part is a random draw from the data of one study; scales do not carry over between parts."}
{"data": "Study 1", "target": "RNA binding protein fox-1 homolog 2, RRM domain, GST-SBP tag (RBFOX2, Homo sapiens, UniProt O43251-10, residues 100-194)", "technique": "RNA Bind-n-Seq", "molecule type": "RNA", "medium": "in vitro", "tested at": "365 nM", "notes": "natural RNA segment, single round, ends assumed", "relative to": "no-protein control", "reading": "higher = stronger binding", "shared flanks, not repeated": "GGGAGUUCUACAGUCCGACGAUC … UGGAAUUCUCGGGUGCCAA", "Residues (chain)": "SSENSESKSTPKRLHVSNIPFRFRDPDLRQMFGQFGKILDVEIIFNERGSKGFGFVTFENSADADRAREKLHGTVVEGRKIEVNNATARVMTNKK"}
{"Strand": "ACCCCUGUCUGGUGAUAUGCUAUACCCCAGUGCUGCCUACACGUGCUUUAGCUGUAGAGCUGGGUAUACUGUUGAUCCAGCUGUCCGUCAGGGACUUGAUAACCUGAUGU", "RBNS enrichment (R)": 0.416}
{"Strand": "GAGGACAUGACUCCAAGGUGCUGGGAGAUGCACCAGUCUUGCGCAGCAGCACCUGUGGUCUGGCCUCUGCCUUGCCCUCAUGCAGCCAUGAGCUGCCUUAAGGGGAAGAG", "RBNS enrichment (R)": 1.9}
{"Strand": "AGCUUUUGAAAGGCCUCUAACCUAAACUCCCACCCAGCCUGUCAGGCCCGCUUUGAUAUUCAUUCAGUCUGUAGUAGUAACUUCAGAAAGACCUGGAGGACCUUUCCCCU", "RBNS enrichment (R)": 0.198}
{"Strand": "UACAAGUGUUUUAGAUGUUACUACCUUAUUUUCCCCGAAUUCUAUUUUUGUCCUUGCAGACAGAAUAUAAAAACUCCUGGGCUUAAGGCCUAAGGAAGCCAGUCACCUUC", "RBNS enrichment (R)": 0.365}
{"Strand": "CAGACUGGAAUUGUCCCCUCCUUGUUUUGGUACUGGUCCCACCCACUGUGGUCCCCUGGGCCCUGACCCCAGACAUGUAAAUACUCCUCAAAUUUGGAAAAGUUGUCCCA", "RBNS enrichment (R)": 0.593}
{"Strand": "GGUCUCCCUGUAGGAAAUGUGAAAAAAAGCACAAUAGAACCAGGCUAGGGGCUUUGUUCCUGCUUUUUGUUUUGUUUGGUUUUACUAUCAGAUGGAUGGAUUUGUGUUUG", "RBNS enrichment (R)": 0.451}
{"data": "Study 2", "target": "Sal-like protein 4, full length isoform B (SALL4, Homo sapiens, UniProt Q9UJQ4-2, residues 1-616)", "technique": "universal PBM", "molecule type": "double-stranded DNA, one strand shown", "medium": "in vitro", "tested at": "not given", "notes": "8-mer, flanks averaged, mean of replicates", "reading": "higher = stronger binding", "Residues (chain)": "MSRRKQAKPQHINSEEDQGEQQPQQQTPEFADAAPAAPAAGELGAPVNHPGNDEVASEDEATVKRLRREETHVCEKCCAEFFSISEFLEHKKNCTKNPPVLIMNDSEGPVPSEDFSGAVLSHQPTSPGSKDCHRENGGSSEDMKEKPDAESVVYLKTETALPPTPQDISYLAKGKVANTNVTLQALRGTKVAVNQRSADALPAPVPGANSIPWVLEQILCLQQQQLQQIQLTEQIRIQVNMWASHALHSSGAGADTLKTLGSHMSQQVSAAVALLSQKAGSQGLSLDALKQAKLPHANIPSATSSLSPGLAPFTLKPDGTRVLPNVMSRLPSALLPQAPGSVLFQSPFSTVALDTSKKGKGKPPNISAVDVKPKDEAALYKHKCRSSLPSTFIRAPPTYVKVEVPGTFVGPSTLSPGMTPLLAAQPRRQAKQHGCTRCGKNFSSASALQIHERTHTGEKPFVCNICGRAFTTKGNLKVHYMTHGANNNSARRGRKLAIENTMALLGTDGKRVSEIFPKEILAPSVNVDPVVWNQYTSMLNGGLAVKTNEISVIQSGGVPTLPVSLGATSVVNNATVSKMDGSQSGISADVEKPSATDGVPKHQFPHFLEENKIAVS"}
{"Strand": "GAGAACCC", "E-score": -0.163}
{"Strand": "ACCATCTC", "E-score": -0.00679}
{"Strand": "GATTCGAC", "E-score": -0.0707}
{"Strand": "GCAGGGCC", "E-score": -0.381}
{"Strand": "AAGATGCT", "E-score": 0.00115}
{"Strand": "AAGACCGC", "E-score": -0.0822}
{"Strand": "CACGGTCG", "E-score": -0.358}
{"data": "Study 3", "target": "Histone acetyltransferase KAT6A, both winged helices, GST fusion (KAT6A, Homo sapiens, UniProt Q92794, residues 1-181)", "technique": "protein binding microarray", "molecule type": "double-stranded DNA, one strand shown", "medium": "in vitro", "tested at": "not given", "notes": "8-mer, flanks averaged, mean of 2 arrays, mostly near background", "relative to": "not given", "reading": "higher = stronger binding", "Construct (chain)": "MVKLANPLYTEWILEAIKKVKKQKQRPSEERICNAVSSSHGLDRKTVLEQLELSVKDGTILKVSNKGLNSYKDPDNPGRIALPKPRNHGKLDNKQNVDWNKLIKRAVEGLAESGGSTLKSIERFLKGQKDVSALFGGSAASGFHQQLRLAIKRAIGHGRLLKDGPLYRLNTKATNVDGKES"}
{"Strand": "CTGCGGTA", "E-score": 0.144}
{"Strand": "AAGACGTG", "E-score": -0.043}
{"Strand": "TACTTTCA", "E-score": -0.0765}
{"Strand": "TCGATCGA", "E-score": 0.133}
{"data": "Mixed results"}
{"Substance": "PhoQ, residues 284 288 289 292 302 303 WSHMKI", "target": "PhoP, residues 12 14 15 18 19 LHHVQ (Escherichia coli, UniProt P23836)", "assay": "Sort-seq, measured: YFP reporter", "system": "E. coli", "setting": "PhoQ-PhoP variant library, added: 10 µM Mg2+", "scale": "relative to: high Mg2+ state, higher = stronger signaling", "endpoint": "fold induction", "value": 0.802}
